# Measurements pooled from the literature.
# Protocols differ between the studies behind these lines. Values joined by “and” are separate records of one study, mostly repeats; a detail may differ. ± gives the spread as reported.
SMILES,cell line,assay,conditions,scale,quantity,result
Cc1cc(NC2CCN(C)CC2)ccc1-c1cc2c(N3CCC[C@H](C(=O)Nc4ccc(C(F)(F)F)cc4)C3)ncnc2[nH]1,NCI-H2228,"cell growth or viability, MTT","1 µg/mL, 72 h",,inhibition,80.3%
O=C(C[Se]C(=O)c1ccccc1Nc1cccc(C(F)(F)F)c1)Nc1cccc(C(F)(F)F)c1,NCI60 renal subpanel,cell growth,"10 µM, 48 h, one-dose",,mean growth percent,-92%
Cc1cc(N2CCCCC2)ccc1-c1cc2c(N3CCC[C@H](C(=O)NCc4ccc(OC(F)(F)F)cc4)C3)ncnc2[nH]1,NCI-H2228,"cell growth or viability, MTT","5 µg/mL, 72 h",,inhibition,90.8%
CNS(=O)(=O)Nc1nccc(Cc2c(C)c3ccc(Oc4ncccc4F)cc3oc2=O)c1F,KYSE-270,cell viability,7 days,,IC50,> 1 µM
Cc1cc(Cl)cc(-c2ccnc3cc(CN4C(=O)C5C(C4=O)C5(C)C)sc23)c1C[C@@H]1CNCCO1 (stereo partly drawn),CHP-212 parental (wild-type USP7),PI flow cytometry,"1 µM, 24 h",,cells in G2/M phase,14.3% and 10.1% and 17.4%
Cc1cc(NC2CCN(C)CC2)ccc1-c1cc2c(N3CCC[C@H](C(=O)N4CCCCC4)C3)ncnc2[nH]1,NCI-H2228,"cell growth or viability, MTT","0.04 µg/mL, 72 h",,inhibition,0.5%
CN1CCCNC(=O)c2cccc(c2)C(=O)NCCCN(C)CCCNc2cccc3c2C(=O)c2cccc(c2C3=O)NCCC1,SAS,"RNA-Seq, refers to: DHX36 mRNA","1 µM, 6 h",relative to: untreated cells,log2 fold change,-0.803
CO[C@@H]1[C@@H](OC(N)=O)[C@@H](O)[C@H](Oc2ccc3c(O)c(NC(=O)c4ccc(O)c(CC=C(C)C)c4)c(=O)oc3c2C)OC1(C)C,HCT-116 BRCA2 wild-type,,"200 µM, replicate A",relative to: untreated,colony survival,88.4%
CCN(C(=O)c1cc(F)ccc1Oc1nncnc1N1CCC2(C1)CN([C@H](CCCN(C)CCOC)C(C)C)C2)C(C)C,786-O,cell growth,168 h,,GI50,> 10 µM
COC(=O)c1cc(NC2=NC(=O)C(=Cc3ccc(N(C)C)cc3)S2)ccc1OC(C)=O,MCF7,"GC-MS, refers to: Oxalic acid",1 µM,relative to: DMSO,metabolite level,0.37 fold change
C(=N\Nc1nc(-c2ccccn2)nc2ccccc12)/c1ccccc1,LDR,"silenced CMV-GFP reporter derepression, qHTS",,,Emax,202%
Cc1ncsc1-c1ccc(C(C)NC(=O)C2CC(O)CN2C(=O)C(NC(=O)CCCCCCCCCCN2CCCC(Nc3ncc(Cl)c(Nc4ccccc4S(=O)(=O)C(C)C)n3)C2)C(C)(C)C)cc1 (stereo not drawn),22Rv1,"RNA-seq, refers to: ZKSCAN1 mRNA",concentration not given,relative to: DMSO,log2 fold change,-1.26
COc1cccc(OC)c1-c1cc(C(=O)NC2(C(=O)O)C3CC4CC(C3)CC2C4)nn1-c1ccc(C(=O)N(C)CCOCCN(C)C(=O)[C@H](CCCCNC(=O)[C@H](CC(C)C)NC(=O)C2OC2C(=O)O)NC(=O)CN2CCN(CC(=O)[O-])CCN(CC(=O)[O-])CCN(CC(=O)[O-])CC2)cc1C(C)C.[177Lu+3] (mixture of isomers),HT-29,,"concentration not given, 60 min",relative to: added activity,internalized fraction,3.29 ± 0.21%
COCC/N=C(\S)N/N=C(\C)c1ccccc1O,LDR,"silenced CMV-GFP reporter derepression, qHTS",,,EC50,3.98 µM
C=CC(=O)N1CCCC(n2c(=O)c3ncccc3n(Cc3ccc(Oc4ccccc4)cc3)c2=O)C1 (stereo not drawn),SSK41,"cell growth or viability, MTT",72 h,,IC50,2.5 µM
O=C(NCc1ccc(OC(F)(F)F)cc1)[C@H]1CCCN(c2ncnc3[nH]c(-c4cccnc4)cc23)C1,NCI-H2228,"cell growth or viability, MTT","5 µg/mL, 72 h",,inhibition,83.4%
COc1ccc(CNc2ccc3c(c2)S(=O)(=O)C=C3)cc1,A-172,resazurin,"5 µM, 24 h",,viability,40%
CCN(CC)CC(=O)Nc1cccc(-n2cc(-c3ccc4ccc(-c5cn(-c6cccc(NC(=O)CN(CC)CC)c6)nn5)cc4c3)nn2)c1,RCC4,"PCR angiogenesis array, refers to: ERBB2","5 x IC50, 2 h, normoxia",relative to: untreated,fold regulation,1.12

# Excerpt of the above:
SMILES,cell line,assay,conditions,scale,quantity,result
Cc1cc(NC2CCN(C)CC2)ccc1-c1cc2c(N3CCC[C@H](C(=O)Nc4ccc(C(F)(F)F)cc4)C3)ncnc2[nH]1,NCI-H2228,"cell growth or viability, MTT","1 µg/mL, 72 h",,inhibition,80.3%
O=C(NCc1ccc(OC(F)(F)F)cc1)[C@H]1CCCN(c2ncnc3[nH]c(-c4cccnc4)cc23)C1,NCI-H2228,"cell growth or viability, MTT","5 µg/mL, 72 h",,inhibition,83.4%
COc1ccc(CNc2ccc3c(c2)S(=O)(=O)C=C3)cc1,A-172,resazurin,"5 µM, 24 h",,viability,40%
